# Experimental data from different studies.
# A part holds a random share of what one study measured.

# Series 1
# Target: Histone acetyltransferase KAT6A, both winged helices, GST fusion (KAT6A, Homo sapiens, UniProt Q92794, residues 1-181)
# Technique: protein binding microarray
# Molecule type: double-stranded DNA, one strand shown
# Sample: in vitro
# Tested at: not given
# Setting: 8-mer, flanks averaged, mean of 2 arrays, mostly near background
# Relative to: not given
# Reading: higher = stronger binding
# Target sequence (chain): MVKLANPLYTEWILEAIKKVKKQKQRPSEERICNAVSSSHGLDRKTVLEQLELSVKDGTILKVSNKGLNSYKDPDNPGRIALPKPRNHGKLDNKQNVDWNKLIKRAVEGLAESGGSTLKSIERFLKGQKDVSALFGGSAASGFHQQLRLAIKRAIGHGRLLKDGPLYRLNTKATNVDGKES
Strand,E-score
GTGCATGA,-0.0192
TCGAACGA,0.107
GTTCCGCA,0.215
CAGAGCTG,-0.109
CTTGTGCA,-0.154
ATAAATGG,-0.112
CGAATTTA,0.0268
AACGCATT,0.205
ATTAGCAG,-0.134
CCCAGGGC,-0.0267
GTATCACA,0.0303
ATCTAAAC,-0.0248
CCTCGAGC,-0.0362
ACTGCCTA,-0.211
ACTTCAAA,-0.206
CTTGCTCC,-0.217
CCACCCGG,0.139
CGTACTGA,0.11
ACTCCGAG,-0.109
ATGCCAAT,-0.136

# Series 2
# Target: Centromere-binding protein 1, full length, His-tagged (CBF1, Saccharomyces cerevisiae, UniProt P17106, residues 1-351)
# UniProt P17106, sequence (whole entry, looked up): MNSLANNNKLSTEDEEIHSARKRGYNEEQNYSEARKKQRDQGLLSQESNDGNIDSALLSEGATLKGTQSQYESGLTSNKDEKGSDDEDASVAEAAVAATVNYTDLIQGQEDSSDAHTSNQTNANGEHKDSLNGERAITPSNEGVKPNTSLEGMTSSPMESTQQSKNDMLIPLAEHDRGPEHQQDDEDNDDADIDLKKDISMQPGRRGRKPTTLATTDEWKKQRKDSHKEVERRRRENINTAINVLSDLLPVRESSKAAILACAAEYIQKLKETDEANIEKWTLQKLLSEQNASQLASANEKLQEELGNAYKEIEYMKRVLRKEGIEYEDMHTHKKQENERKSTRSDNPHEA
# Technique: competition protein-binding microarray
# Molecule type: double-stranded DNA, one strand shown
# Sample: in vitro
# Tested at: 2 µM
# Setting: whole 60-bp probe, lowest competitor level
# Together with: Pho4 competitor, 0.05 µM
# Reading: higher = stronger binding
# All sequences stand within: … GTCTTGATTCGCTTGACGCTGCTG
Strand,fluorescence intensity [a.u.]
CTTCTGTAAATTTGTCACGGTACTTGACGCGCCCCG,193
AGGGCAGCGCGCGACCGCGTGTCCTTTCACAGCGCA,52.4
TGCGCAACAACTTACCACGTGTTTTTATGTCTAGAA,1740
ATCTTGGGGATTACCCACGTGCTGTAACAAACGGTT,1540
CGTCCTAGTGATTGGATGGTGGGTGCCATGAGGAAG,83.2
AAAACCCTAACAATACACATGATGCAACTGGAACGC,173
AAAGCGGTAATTTTTCACGTGAGTTCACATATCTAT,914
CTTTCCCGATCTTGATAAGTGGGTGTAGCACATTTG,76.3
GGCTAAAACGAAGCCATCGTGCAAAATGGTAAGTTC,68.8
TGCGCAACAACTTGTCACCAGACTTTATGTCTAGAA,90.6
AGAAAGAAAGACGACCACGTGACGGGAACGAAGAGC,7240
CGGAAAGGGCTGGGCCACGTGGGCGGCTGCTGAGTG,673
CTGATGTCTGTTTTCAACATGATGTCCAATGGTGCC,82.1
TGGTATATTGCCGTTTTCTGTATCAGTTGCTGATAT,104
TCTGATTCGTTAAAATACGTGATGGTGTTATTTTTA,112
ATTGAAAGCGCCCGGATCGTGCCAGTATTTACCACC,87.1
GCCCAAAGACCCGGCCACGTTCAGGCCCCATCAATA,61.2
GACTCTGAAAAGGGTACCGTGACTCGGAAAGAAGTT,410
GGTGGAAAGTGAGTGCGCGTTTCTCGAGCCAAGTGC,70.3
CTTTCCCGATCTTTTCACGTGTATTTAGCACATTTG,833
CATCACCTTCCTTAGCACGGGTTCTTGCTGTCTGCT,126
TTGTTGCCACAAATGAACGTGGAAGGAGTTTCTGGG,73.7
CAATGGGTAAGCAGAGGCGTGCGATCCCTGTGTGGT,52.7
TCAGTTCAAGCAGGGAACGTGCCAGACATGGCTAGT,79.9
CTTTCCCGATCTTGGGCAGTGGGTGTAGCACATTTG,71.5

# Series 3
# Target: RNA binding protein fox-1 homolog 2, RRM domain, GST-SBP tag (RBFOX2, Homo sapiens, UniProt O43251-10, residues 100-194)
# Technique: RNA Bind-n-Seq
# Molecule type: RNA
# Sample: in vitro
# Tested at: 365 nM
# Setting: natural RNA segment, single round, ends assumed
# Relative to: no-protein control
# Reading: higher = stronger binding
# All sequences stand within: GGGAGUUCUACAGUCCGACGAUC … UGGAAUUCUCGGGUGCCAA
# Target sequence (chain): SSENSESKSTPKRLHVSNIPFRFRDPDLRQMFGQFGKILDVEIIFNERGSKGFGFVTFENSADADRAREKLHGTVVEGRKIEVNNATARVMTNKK
Strand,RBNS enrichment (R)
CUGUAAGACAGUCCUUCAAGUUUUUACACAGAAGAGAAUUUUGAGUGUCCUCUCUAUGUUUCAAAUAGCAAAUCUUGUUCAUUAAAAUACUUAUUAAAAGAUUUGAAUAC,0.482
UUUCCUUUAAGAUGCAUAUGCUUAACUAUUUGCAGUGUAUUCCUCAACAUAAACUUGUCUGACAGCAAAUAGUCAGAUGCUGCAGUGUUUGGAAAUGAUGUACAUCUUGA,0.482
GUCCACACUAGAAAGAAGCUCGCCCCACCUCCACCUGUGAGAUCCGUGAAUUCUCGGAAUGGCAGGGGAAGCCUUGCACUAGGUUGCAGAGAAGCAUCCUCCACAUCCUG,1.38
UGUCUUCACUUUUGAUAUAUAAACAGGUAAAUAUGUUUUUUAAAAAAUACUAAAUAUAGAGAAUAUGAAACAAAAUUGGUUGCUUGUUGCCUUCUGUGUCUUCUCAAGGA,1.04
UGCCCUCUGAAAGAAGGGUUUUCUGUGCUGUGAAAUGCAUAGAACUAUACUUUGCCAUGCACGACUGUUCCUGCAAUUGAUAUUGUGUGAAAUCUGGGAGGGUGGUCUUU,1.1
CACAGAAGACAGAAGACAGGCAUCUUUGUUUCCACACAAUCAUAUUUUCUAUUCCUAACAGCUUCCCGUGGGAAAAGUAAGCUGUUGAUCUCUUUGGCAAUUGUUCUCUG,1.2
UAAUCACUUCGUCAUAAUGUUAAGGGAGAUGCUAGUGUGUGGCAGCCAUGAAAAGUUACACAUACACACCCACAUACAGACAGACCUACCUAUACAUACGUGCACACACA,0.508
AAAUGCCACUGUGAUCCACAGCUGAAGUUGUUUCUAAUUGCCUAAAGGCAGUCUCUGUGUCUGGAGCUUCAAAGAGACAGGCAGACCUGCACUAAUUCCCUUCUUCCUCU,0.35
UUGUUUAUUUUUGCUUGUUAUGUUAAGCAAAAAUCCUGCAAUGAAAGGUACUAUAUUUGCCAGACUCUAGACAUAAGAUAUUGUACAUAAAGAGAAUUUUUUUUGCCUUU,1.78
GCCCGCCCCUGCCCCGCUCUGGGGCCCUCCAGACCUGCUCGGGUGCUGGGGCCAUGCCGAGUCGCGGCCCUGCUCAGCCGGAAGAGGCUCCCGGACCUGGAUGUACAGGG,0.263
AUACAUUCAUAAGGAAAUGUGUGUUGUAACAAAUAUAUUGCAAAAACAUAGUUUGUAAAGGCAUUCUAUAAGCUAUUUAUGUAAAAUCAAUAAAAGUUGAUCAUAAUUAA,0.6
ACAGAAGAAUAAAAUUCUUUGUAGACAGUCAUCUUCAAAUGUACUGUCCGCCCCUUGCCUGGAGACAGUUCUUCCCAUUUUAAACAAACAAACAAAAUUUAAGGCGUUUA,0.627

# Series 4
# Target: Interferon regulatory factor 5, full length, phosphomimetic (IRF5, Homo sapiens, UniProt Q13568-2, residues 1-514, K96S/S451D/S453D/S456D/S462D)
# Technique: protein-binding microarray
# Molecule type: double-stranded DNA, one strand shown
# Sample: in vitro
# Tested at: 250 nM
# Setting: 60-bp whole probe
# Together with: salmon DNA 0.4 mg/ml
# Relative to: random background probes
# Reading: higher = stronger binding
# All sequences stand within: GCCTAGCAC … GTCTTGATTCGCTTGACGCTGCTG
Strand,log fluorescence
GACGGGCTGGACTATCGGGACGTGCTA,0.434 z-score
TTAGGACTGGGGTATCGGTAAGTGCTA,1.22 z-score
TTAGGTATCGGGACTGAGTTAGTGCTA,1.7 z-score
TTAGGTATCGGTATCGGTTGGTGCTAG,8.69 z-score
TTAGGTTTCCTTTCCCTTTGGTGCTAG,2.05 z-score
TCAACTCTGGAGGTTGAGACTGTGCTA,-0.303 z-score
TACTATATGCATGTAAATAAGTGCTAG,0.502 z-score
ATAACTTTTTTTTTTCCCTGGTGCTAG,0.785 z-score
ATGCCTTTCGTCAAGAAGACGTGCTAG,2.59 z-score
TTAGGTCTCGGTCTCGTTTAGTGCTAG,0.646 z-score
GACGATATTAGTCTCGAGACGTGCTAG,0.788 z-score
TTAGGTTTCGGTCGCGGTTAGTGCTAG,10.1 z-score
GAGGGACTGGGTCTCGGGACGTGCTAG,-0.911 z-score
GACGAAATGGGGTATCGAGACGTGCTA,0.904 z-score
AGACAGAAGGGAAACAGGTTGGTGCTA,0.0905 z-score
TTAGATATCAGTCTCGATAAGTGCTAG,2.12 z-score
GACGGTCACGGACTGGGGACGTGCTAG,-0.849 z-score
ATCCATCTCAAGTAGCCTAGCGTGCTA,-0.0165 z-score
TTGCTGAAATAATACTGTTAGTGCTAG,0.562 z-score
GACGGACGGGGTCTCGGGACGTGCTAG,-0.562 z-score
GACGTTTTCGGGTTTCGAGACGTGCTA,6.48 z-score
TTAGATTTCGGGTATCGACTAGTGCTA,6.56 z-score
GATGTTTTAGGTCCCTTTTCGTGCTAG,0.527 z-score
ATGCATGTAAATAATCAGACAGTGCTA,0.417 z-score
TTAGGACTGGGGTATCGGTGAGTGCTA,0.734 z-score

# Repeated from above (series 2):
Strand,fluorescence intensity [a.u.]
CTTTCCCGATCTTGATAAGTGGGTGTAGCACATTTG,76.3
CGTCCTAGTGATTGGATGGTGGGTGCCATGAGGAAG,83.2
GCCCAAAGACCCGGCCACGTTCAGGCCCCATCAATA,61.2
ATTGAAAGCGCCCGGATCGTGCCAGTATTTACCACC,87.1
TGGTATATTGCCGTTTTCTGTATCAGTTGCTGATAT,104
CATCACCTTCCTTAGCACGGGTTCTTGCTGTCTGCT,126
TTGTTGCCACAAATGAACGTGGAAGGAGTTTCTGGG,73.7
CAATGGGTAAGCAGAGGCGTGCGATCCCTGTGTGGT,52.7
CTGATGTCTGTTTTCAACATGATGTCCAATGGTGCC,82.1
CTTTCCCGATCTTGGGCAGTGGGTGTAGCACATTTG,71.5
GACTCTGAAAAGGGTACCGTGACTCGGAAAGAAGTT,410
GGTGGAAAGTGAGTGCGCGTTTCTCGAGCCAAGTGC,70.3
TCTGATTCGTTAAAATACGTGATGGTGTTATTTTTA,112
